Results from different studies.
Compare with care: the assays were run in different laboratories. Values joined by “and” are separate records of one study, mostly repeats; a detail may differ. ± marks the error that the study gave.

| Structure (SMILES) | tested on | assay | test system | setting | how to read | measurement | value |
| --- | --- | --- | --- | --- | --- | --- | --- |
| c1ccc(-c2n[nH]cc2-c2ccnc3ccccc23)nc1 | – | kinase binding, competitor, MIB/MS competition, measured: IRE1 | Candida albicans cell lysate | 1 µM | relative to: DMSO | log2 fold change | 1.04 |
| OC(CCN1CCCCC1)(c1ccccc1)C1CC2C=CC1C2 (stereo not shown) | – | resting-state EEG | healthy elderly humans | oral, 2 mg, eyes open, LS mean | – | beta power, EEG, Fz Cz | 5.2 µV² |
| CN[C@@H]1COc2c(S(=O)(=O)NC(=O)Nc3c4c(cc5c3CCC5)CCC4)cnn2C1 | – | measured: IL-1β | human participants, whole blood ex vivo | 300 mg twice daily, multiple doses, 48 h, added: LPS/ATP | relative to: baseline | inhibition | 97.9% |
| O=C(O)CNC(=O)Cc1ccccc1 | – | – | ventricular cardiomyocytes, C57BL/6 mouse | dose not given, 0.088 s | – | sarcomere length | 1.72 µm |
| NCC(=O)Nc1cncc(-c2nn3c(=O)cc(N4CCNCC4)nc3s2)c1 | – | ADP-induced platelet aggregation, light transmission aggregometry | human, stable CAD on aspirin, platelets ex vivo | subcutaneous, 0.075 mg/kg, 15 min post-dose, added: ADP 20 µM | – | median inhibition | 90.1% |
| Cc1cc([C@H]2C[C@H]3[C@@H](CF)SC(N)=N[C@@]3(c3ccc(F)cc3F)CO2)on1 | – | measured: Aβx-42 | Mus musculus wild-type, brain | subcutaneous, 30 mg/kg, 5 h | – | Aβ42 level | 0.52 ng/g |
| O=c1[nH]cc(F)c(=O)[nH]1 | THP-1 | pyroptotic LDH release | – | 2 µM, 40 min, added: LPS then nigericin | – | inhibition | 8.59% |
| Cc1cc(F)cc2c(CCC(=O)N[C@@H]3C(=O)NC[C@H]3O)c(-c3ccc(F)cc3)[nH]c12 | – | – | APOL1 G2 mice, IFNγ-induced | 30 mg/kg twice daily, day 7 | – | urine albumin/creatinine ratio | 362 µg/mg and 13000 µg/mg and 644 µg/mg and 1080 µg/mg and 531 µg/mg and 452 µg/mg |
| CC(=O)[C@@]1(O)CC[C@H]2[C@@H]3C[C@H](C)C4=CC(=O)C=C[C@]4(C)[C@@]3(F)[C@@H](O)C[C@@]21C | THP-1 | pyroptotic LDH release | – | 2 µM, 40 min, added: LPS then nigericin | – | inhibition | -1.79% |
| N#Cc1ccn2c(-c3ccncc3)c(-c3ccc(F)cc3)nc2c1 | – | kinase binding, competitor, MIB/MS competition, measured: RIM8 | Candida albicans cell lysate | 100 nM | relative to: DMSO | log2 fold change | -0.0882 |
| CCN1CCN(Cc2ccc(Nc3ncc(F)c(-c4cc(F)c5nc6n(c5c4)[C@H](C)CCC6)n3)nc2)CC1 | – | – | human advanced solid tumours | 200 mg, phase Ia monotherapy RECIST 1.1 | – | non-CR/non-PD | 0% |
| C[C@H]1C[C@H]2CSC(N)=N[C@@]2(c2nc(NC(=O)c3ccc(OC(F)F)cn3)cs2)CO1 | – | measured: total Aβ | healthy adults, plasma | 200 mg single dose, 6 h post-dose | relative to: placebo | percent change from baseline | -51.8% |
| COc1nc(NCc2cn(-c3ccc(C(=O)Nc4ccc(Cl)cc4)cc3)nn2)nc(OC)n1 | – | MTT | normal colonocytes, rat | 72 h | – | maximum non-toxic concentration | 35.06 ± 0.23 nM |
| Cn1cc(Nc2nccc(-c3ccc4c(c3)CN(C3COC3)CC[C@H]4NC(=O)c3cn(C(C)(C)C)nn3)n2)cn1 | – | measured: CXCR4 signalling | mouse splenic B cells, mouse | 30 mg/kg, IgD-activated B cells in vivo | relative to: vehicle, direction not given | pathway activation z-score | 3.71 |
| CC(C)NCC(O)c1ccc(O)c(O)c1 (stereo not shown) | – | – | ventricular cardiomyocytes, C57BL/6 mouse | dose not given, 0.084 s | – | sarcomere length | 1.72 µm |
| COc1c(O)cc2c(c1O)C(=O)c1c(cc(C)c(O)c1OC)C2=O | HK-2 co-cultured with HepaRG | MTT | – | 66.67 µM, 24 h | relative to: untreated control | viability | 86.8 ± 13.2% |
